{"data": "Published values gathered from unrelated publications", "note": "Compare with care: the assays were run in different laboratories."}
{"Compound": "C=C(F)C(=O)N1CCN(c2nc(OC[C@@H]3CCCN3C)nc3c2CCN(c2cccc4cccc(Cl)c24)C3)C[C@@H]1CC#N", "system": "blood", "quantity": "blood to plasma ratio", "value": 0.7}
{"Compound": "C=CC(=O)N(C)CCOc1c(N)ncnc1-c1cc(F)cc(NC(=O)c2ccc(C3CC3)cc2F)c1C", "system": "whole blood and plasma", "quantity": "blood to plasma ratio", "value": 0.955}
{"Compound": "O=C1CC[C@H](N2Cc3cc(N4CCN(CC5CCN(c6ccc([C@@H]7c8ccc(O)cc8CC[C@@H]7c7ccccc7)cc6)CC5)CC4)ccc3C2=O)C(=O)N1", "system": "rat whole blood", "setting": "2.5 µM, 60 min", "quantity": "blood to plasma ratio", "value": 0.71}
{"Compound": "COc1ccc([C@@H](O)c2cc(-c3ncnc4cc(N5CCOCC5)ccc34)c(F)cc2Cl)nn1", "system": "locally advanced rectal cancer patients", "setting": "50 mg, together with: capecitabine and radiotherapy", "quantity": "blood lymphatic disorder TEAE", "value": "0%"}
{"Compound": "COc1cc(Cl)c(C(=O)N[C@@H](CN[C@H]2CC[C@@H](N)CC2)Cc2ccc(C#N)cc2)cc1-c1ccc(CN[C@H](C)c2ccc(C)cc2)o1", "system": "human liver microsomes", "setting": "1 µM, pH 7.4", "quantity": "blood clearance", "value": "25 mL/min/kg"}
{"Compound": "CNC(=O)c1ccc(-c2cnc3ncc(Cc4ccc5ncccc5c4)n3n2)cc1F", "system": "Japanese patients", "setting": "oral, 400 mg, any grade", "quantity": "blood creatinine increased dose reduction/interruption", "value": "5%"}
{"Compound": "Cc1ccc(Sc2ccccc2N2CCNCC2)c(C)c1", "system": "healthy adult men", "setting": "oral, 2.5 mg single", "quantity": "blood in urine", "value": "0%"}
{"Compound": "NC/C(=C\\F)COc1cccc(Cn2c(=S)[nH]c(=O)c3[nH]cnc32)c1", "system": "human whole blood", "setting": "1 µM, 60 min", "quantity": "blood to plasma ratio", "value": 0.99}
{"Compound": "Cc1cc(C)c(CNC(=O)c2cc(Cl)c3c(c2C)O[C@@](C)([C@H]2CC[C@H](N(C)C)CC2)O3)c(=O)[nH]1", "system": "blood and plasma", "quantity": "blood to plasma ratio", "value": 0.6}
{"note": "Repeated from above:"}
{"Compound": "C=C(F)C(=O)N1CCN(c2nc(OC[C@@H]3CCCN3C)nc3c2CCN(c2cccc4cccc(Cl)c24)C3)C[C@@H]1CC#N", "system": "blood", "quantity": "blood to plasma ratio", "value": 0.7}
